Experimental data from different studies.
Numbered parts are unrelated; each lists some results of a single study. Several values in a cell are separate wells, animals, samples, runs or records.
UniProt P08912, sequence (whole entry, looked up): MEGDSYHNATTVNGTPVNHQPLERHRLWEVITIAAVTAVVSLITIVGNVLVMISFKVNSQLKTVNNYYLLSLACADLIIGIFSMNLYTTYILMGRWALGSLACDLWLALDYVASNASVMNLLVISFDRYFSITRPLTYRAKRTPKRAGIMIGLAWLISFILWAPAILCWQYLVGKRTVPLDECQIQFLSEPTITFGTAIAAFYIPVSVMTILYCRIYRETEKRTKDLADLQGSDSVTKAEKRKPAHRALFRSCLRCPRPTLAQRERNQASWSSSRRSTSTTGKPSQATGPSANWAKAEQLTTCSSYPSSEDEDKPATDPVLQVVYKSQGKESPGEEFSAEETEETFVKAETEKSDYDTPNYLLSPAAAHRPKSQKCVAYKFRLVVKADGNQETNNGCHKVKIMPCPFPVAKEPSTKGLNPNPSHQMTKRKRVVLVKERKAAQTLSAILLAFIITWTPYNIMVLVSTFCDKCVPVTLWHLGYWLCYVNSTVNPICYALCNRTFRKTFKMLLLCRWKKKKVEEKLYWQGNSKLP
UniProt Q99720, sequence (whole entry, looked up): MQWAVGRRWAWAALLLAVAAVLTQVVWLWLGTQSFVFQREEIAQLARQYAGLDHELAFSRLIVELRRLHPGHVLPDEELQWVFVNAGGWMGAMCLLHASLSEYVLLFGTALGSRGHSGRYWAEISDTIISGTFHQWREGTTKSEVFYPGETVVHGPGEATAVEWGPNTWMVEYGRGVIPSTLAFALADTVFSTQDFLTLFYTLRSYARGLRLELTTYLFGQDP
UniProt P50406, sequence (whole entry, looked up): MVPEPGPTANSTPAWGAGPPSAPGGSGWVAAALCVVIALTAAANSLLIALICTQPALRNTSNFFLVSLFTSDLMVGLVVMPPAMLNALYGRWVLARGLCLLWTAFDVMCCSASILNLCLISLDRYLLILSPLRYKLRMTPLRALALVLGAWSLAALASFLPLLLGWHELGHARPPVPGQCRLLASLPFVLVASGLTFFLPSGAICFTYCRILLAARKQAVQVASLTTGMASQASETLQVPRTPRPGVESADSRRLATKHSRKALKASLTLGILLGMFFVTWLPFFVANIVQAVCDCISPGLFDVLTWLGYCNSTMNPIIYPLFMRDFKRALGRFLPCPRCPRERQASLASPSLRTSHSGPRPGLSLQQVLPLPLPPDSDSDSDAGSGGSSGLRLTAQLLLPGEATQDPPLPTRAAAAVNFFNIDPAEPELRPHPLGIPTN
UniProt P35348, sequence (whole entry, looked up): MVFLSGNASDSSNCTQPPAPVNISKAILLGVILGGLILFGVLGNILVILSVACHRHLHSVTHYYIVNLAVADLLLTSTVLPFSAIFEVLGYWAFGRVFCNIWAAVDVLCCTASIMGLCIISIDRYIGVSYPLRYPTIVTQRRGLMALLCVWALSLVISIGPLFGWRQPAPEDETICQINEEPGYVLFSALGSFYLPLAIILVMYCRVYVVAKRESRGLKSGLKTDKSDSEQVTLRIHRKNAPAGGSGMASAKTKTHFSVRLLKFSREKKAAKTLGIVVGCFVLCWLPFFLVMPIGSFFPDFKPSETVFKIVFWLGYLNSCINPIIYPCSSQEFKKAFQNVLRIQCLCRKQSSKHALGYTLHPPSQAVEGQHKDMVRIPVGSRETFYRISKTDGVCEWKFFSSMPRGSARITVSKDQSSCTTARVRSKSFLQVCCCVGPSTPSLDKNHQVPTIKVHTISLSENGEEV
UniProt P08913, sequence (whole entry, looked up): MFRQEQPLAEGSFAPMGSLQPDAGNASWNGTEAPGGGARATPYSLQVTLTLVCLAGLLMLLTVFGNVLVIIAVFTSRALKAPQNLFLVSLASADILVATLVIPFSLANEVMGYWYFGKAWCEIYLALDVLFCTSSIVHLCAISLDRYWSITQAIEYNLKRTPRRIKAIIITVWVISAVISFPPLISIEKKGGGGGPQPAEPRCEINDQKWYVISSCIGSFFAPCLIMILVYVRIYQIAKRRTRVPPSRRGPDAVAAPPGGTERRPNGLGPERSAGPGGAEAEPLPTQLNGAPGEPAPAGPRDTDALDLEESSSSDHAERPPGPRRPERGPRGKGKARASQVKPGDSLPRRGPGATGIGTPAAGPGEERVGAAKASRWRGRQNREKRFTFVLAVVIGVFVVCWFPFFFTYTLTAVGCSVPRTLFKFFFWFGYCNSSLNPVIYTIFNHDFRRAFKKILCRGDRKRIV
UniProt P21728, sequence (whole entry, looked up): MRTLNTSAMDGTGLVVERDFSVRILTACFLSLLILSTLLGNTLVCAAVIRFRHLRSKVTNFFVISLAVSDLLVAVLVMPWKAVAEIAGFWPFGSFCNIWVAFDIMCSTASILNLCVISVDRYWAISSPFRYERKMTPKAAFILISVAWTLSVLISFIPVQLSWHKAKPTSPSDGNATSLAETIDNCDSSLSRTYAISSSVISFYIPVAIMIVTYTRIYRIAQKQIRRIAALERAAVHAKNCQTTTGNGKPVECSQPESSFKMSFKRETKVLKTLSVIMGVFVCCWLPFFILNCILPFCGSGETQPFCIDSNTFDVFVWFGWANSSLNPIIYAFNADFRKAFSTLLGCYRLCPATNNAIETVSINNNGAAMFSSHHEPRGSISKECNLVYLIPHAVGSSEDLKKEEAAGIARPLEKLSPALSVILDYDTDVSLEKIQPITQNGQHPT
UniProt P34969, sequence (whole entry, looked up): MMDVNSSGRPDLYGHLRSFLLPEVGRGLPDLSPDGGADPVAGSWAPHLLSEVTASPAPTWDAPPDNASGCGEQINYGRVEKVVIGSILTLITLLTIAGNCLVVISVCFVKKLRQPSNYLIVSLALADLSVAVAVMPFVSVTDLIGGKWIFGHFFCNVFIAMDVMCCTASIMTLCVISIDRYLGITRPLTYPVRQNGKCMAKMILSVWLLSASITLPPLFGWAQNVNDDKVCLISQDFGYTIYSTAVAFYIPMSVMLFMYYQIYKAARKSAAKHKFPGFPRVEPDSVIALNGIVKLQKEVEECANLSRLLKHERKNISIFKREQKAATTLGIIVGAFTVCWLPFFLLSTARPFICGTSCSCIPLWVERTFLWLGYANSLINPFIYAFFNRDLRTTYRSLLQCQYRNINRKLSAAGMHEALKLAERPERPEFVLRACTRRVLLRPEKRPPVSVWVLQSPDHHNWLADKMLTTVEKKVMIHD
UniProt P35367, sequence (whole entry, looked up): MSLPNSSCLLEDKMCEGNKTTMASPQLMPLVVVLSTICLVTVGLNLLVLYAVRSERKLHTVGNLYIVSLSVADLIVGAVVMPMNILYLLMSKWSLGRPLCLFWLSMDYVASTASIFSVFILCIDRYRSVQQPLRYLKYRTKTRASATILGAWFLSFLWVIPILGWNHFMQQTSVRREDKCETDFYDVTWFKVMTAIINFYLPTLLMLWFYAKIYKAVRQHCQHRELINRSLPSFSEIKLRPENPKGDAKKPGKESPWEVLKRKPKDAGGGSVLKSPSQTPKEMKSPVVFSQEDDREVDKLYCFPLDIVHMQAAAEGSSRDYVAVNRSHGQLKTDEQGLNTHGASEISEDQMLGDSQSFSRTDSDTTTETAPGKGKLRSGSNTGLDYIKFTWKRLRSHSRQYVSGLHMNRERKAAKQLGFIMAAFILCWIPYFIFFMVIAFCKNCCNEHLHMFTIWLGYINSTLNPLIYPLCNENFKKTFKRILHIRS

Series 1
Compound: CC(C)(C(=O)O)[C@H](NC(=O)Cc1cccc(I)c1)c1ccc2oc(=O)[nH]c2c1
Method: Incucyte 3D growth
Tested at: 30 µM
Reading: higher = more growth
cell line	time	spheroid area
KP-4	54 h	1.43e+07 a.u. and 1.27e+07 a.u. and 1.51e+07 a.u. and 1.5e+07 a.u. and 1.31e+07 a.u. and 1.39e+07 a.u.
A375	72.52 h	2.96e+07 a.u. and 3.61e+07 a.u. and 3.87e+07 a.u. and 4.22e+07 a.u. and 5.18e+07 a.u. and 4.42e+07 a.u.
MEL-JUSO	522.52 h	2.72e+07 a.u. and 2.69e+07 a.u. and 2.09e+07 a.u. and 5.89e+07 a.u. and 2.94e+07 a.u. and 7.87e+07 a.u.
A375	246.52 h	1.71e+08 a.u. and 1.77e+08 a.u. and 1.87e+08 a.u. and 1.66e+08 a.u. and 1.63e+08 a.u. and 1.92e+08 a.u.
NCI-H1437	222 h	5.75e+07 a.u. and 4.76e+07 a.u. and 8.21e+07 a.u. and 9.18e+07 a.u. and 9.85e+07 a.u. and 3.73e+07 a.u.
NCI-H1437	120 h	2.62e+07 a.u. and 3.4e+07 a.u. and 3.14e+07 a.u. and 2.99e+07 a.u. and 2.45e+07 a.u. and 2.64e+07 a.u.
NCI-H358	24 h	3.17e+06 a.u. and 3.72e+06 a.u. and 2.83e+06 a.u. and 4.31e+06 a.u. and 3.34e+06 a.u. and 3.43e+06 a.u.
MEL-JUSO	312.52 h	4.26e+07 a.u. and 2.39e+07 a.u. and 2.63e+07 a.u. and 2.67e+07 a.u. and 2.99e+07 a.u. and 2.79e+07 a.u.
NCI-H358	96 h	4.01e+06 a.u. and 3.18e+06 a.u. and 4.2e+06 a.u.

Series 2
Species: human
Matrix: microsomes or S9
Tested at: 2 µM
Time: 0.5 h
Compound	remaining compound [%]
O=C(Nc1cccnc1Cl)NC1CCc2[nH]cnc2C1 (stereo not shown)	> 100
CCC(C)n1c(=O)c2sccc2n2c(CCCC(=O)N3CCc4ccccc4C3)nnc12 (stereo not shown)	5.67
Cc1ccccc1CS(=O)(=O)c1ncc(CN(CCN(C)C)C(=O)NC(C)C)n1CC(C)C	0.117
Cc1c(O)ccc2c1oc1c(CC(C)C)c3c(O)nn(C(C)C)c3nc12	82.2
COC(=O)CCNC(=O)CCc1nnc(O)[nH]c1=O	93.3
O=c1c2sc3nc(N4CCOCC4)c4c(c3c2ncn1CCc1ccccc1)CCCC4	12.7
c1ccc(-c2ncc(-c3nc4ccncc4[nH]3)s2)nc1	88.7
Cc1cc(C)n(-c2nc3cc(Cl)c(Cl)cc3nc2NCc2ccncc2)n1	102
O=C(CN1C(=O)CNC1=O)N1C[C@H]2CC=CC[C@H]2C1	76.1
CCc1ccc(S(=O)(=O)[C@H]2CS(=O)(=O)C[C@@H]2N(C)CCc2ccncc2)cc1	0.319

Series 3
Target: Calcium/calmodulin-dependent protein kinase type II subunit alpha (CAMK2A, Homo sapiens, UniProt Q9UQM7)
UniProt Q9UQM7, sequence (whole entry, looked up): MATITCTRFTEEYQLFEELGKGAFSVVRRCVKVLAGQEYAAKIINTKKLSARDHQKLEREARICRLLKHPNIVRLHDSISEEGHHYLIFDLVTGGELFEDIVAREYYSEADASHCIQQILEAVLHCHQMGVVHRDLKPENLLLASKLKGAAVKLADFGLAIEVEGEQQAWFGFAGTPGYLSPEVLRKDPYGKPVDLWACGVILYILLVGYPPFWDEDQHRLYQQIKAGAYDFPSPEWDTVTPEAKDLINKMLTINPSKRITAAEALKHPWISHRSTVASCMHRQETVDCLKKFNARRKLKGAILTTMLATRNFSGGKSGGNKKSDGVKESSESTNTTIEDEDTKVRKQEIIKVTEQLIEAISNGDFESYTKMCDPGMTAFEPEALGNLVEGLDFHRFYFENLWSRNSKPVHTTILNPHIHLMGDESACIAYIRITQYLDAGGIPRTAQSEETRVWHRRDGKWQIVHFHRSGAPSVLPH
Read-out: enzyme activity
Mode: inhibitor
Tested at: 10 µM
Structure (SMILES)	inhibition
CC(=O)Nc1ccc(S(=O)(=O)O)c2cc(S(=O)(=O)O)c(N=Nc3ccccc3)c(O)c12	-56%
COc1cc(N)c(Cl)cc1C(=O)NC1CCN(Cc2ccccc2)CC1	-16%
CC1(C)S[C@@H]2[C@H](N=CN3CCCCCC3)C(=O)N2[C@H]1C(=O)O	-6%
CN=C(NC)NCCC[C@H](N)C(=O)O	24%
COC(=O)CC(C)=O	-7%
O=c1[nH]c(=O)n(C2CCCO2)cc1F (stereo not shown)	0%
Oc1cc(O)c2c(c1)O[C@@]1(c3ccc(O)c(O)c3)Oc3cc(O)c4c(c3[C@@H]2[C@H]1O)O[C@H](c1ccc(O)c(O)c1)[C@H](O)C4	-42%

Series 4
Compound: CNCc1ccccc1-c1csc([C@@H](C)Nc2nc(C)nc3cc(OC)c(OC)cc23)c1
Read-out: cell-free assay
Tested at: 10 µM
target	inhibition
HTR7 (Homo sapiens, UniProt P34969)	76.2%
SIGMAR1 (Homo sapiens, UniProt Q99720)	22.6%
HTR6 (Homo sapiens, UniProt P50406)	-1.41%
ADRA2A (Homo sapiens, UniProt P08913)	91.7%
ADRA1A (Homo sapiens, UniProt P35348)	71.6%
CHRM5 (Homo sapiens, UniProt P08912)	64.8%
DRD1 (Homo sapiens, UniProt P21728)	82.7%
HRH1 (Homo sapiens, UniProt P35367)	49.4%

For quick reference, copied from above (series 2):
Compound	remaining compound [%]
Cc1cc(C)n(-c2nc3cc(Cl)c(Cl)cc3nc2NCc2ccncc2)n1	102
O=C(CN1C(=O)CNC1=O)N1C[C@H]2CC=CC[C@H]2C1	76.1
